Measurements pooled from the literature.
Compare with care: the assays were run in different laboratories. Converted amounts (≈) assume the structure as drawn.

Structure (SMILES) | test | test system | setting | how to read | endpoint | value
CO[C@H]1C[C@@H]2CC[C@@H](C)[C@@](O)(O2)C(=O)C(=O)N2CCCC[C@H]2C(=O)O[C@H]([C@H](C)C[C@@H]2CC[C@@H](OC(=O)NCCOCCOCCOCCOCCOCCOCCOCCOCCC(=O)N3CCc4cc(Cn5nc(-c6ccc7oc(N)nc7c6)c6c(N)ncnc65)ccc4C3)[C@H](OC)C2)C[C@@H](O)[C@H](C)/C=C(\C)[C@@H](O)[C@@H](OC)C(=O)[C@H](C)C[C@H](C)/C=C/C=C/C=C/1C |  | patients with advanced solid tumours | intravenous, 10 mg weekly, grade 3 or higher |  | diarrhoea incidence | 0%
COc1ccc(-c2c(-c3ccc(C#N)c(F)c3)nc(N3CCC(N)CC3)n(C)c2=O)cc1F | refers to: upper respiratory tract infection | human patients | oral, dose not given, dose escalation |  | serious TEAE incidence | 0%
COc1cc(Nc2ncc(F)c(Nc3ccc4c(n3)NC(=O)C(C)(C)O4)n2)cc(OC)c1OC |  | non-kinase assay buffer | 3 h, pH 7.5, 1% DMSO |  | solubility | 1.8 µM (≈ 0.847 µg/mL)
O=C(Nc1ccccc1)C1CCN(C(=O)Oc2cccnc2)CC1 | Bond-Lader VAS | healthy women | oral, 100 mg | reference: pre-dose baseline, direction not given | change in Happy-Sad score | -18
CC(C)C[C@@H](NC(=O)[C@H](Cc1ccccc1)NC(=O)CNC(=O)[C@@H](C)NC(=O)[C@H](Cc1ccc(O)cc1)NC(=O)[C@@H]1CCCN1C(=O)[C@@H]1CCCN1C(=O)c1ccc[n+](C)c1)C(=O)O |  | rat hypothalamus homogenate | 100 µM, pH 7.4, 37 °C |  | half-life | 28 min
Fc1ccc([C@@H]2CCNC[C@H]2COc2ccc3c(c2)OCO3)cc1 | refers to: Tiredness | healthy volunteers | oral, dose not given, given -1 h relative to LSD, together with: LSD | direction not given | List of Complaints score | 8 score
NCCCC[C@@H]1NC(=O)[C@@H](Cc2c[nH]c3ccccc23)NC(=O)[C@H](c2ccccc2)NC(=O)[C@@H]2C[C@@H](OC(=O)NCCN)CN2C(=O)[C@H](Cc2ccccc2)NC(=O)[C@H](Cc2ccc(OCc3ccccc3)cc2)NC1=O |  | healthy volunteers | subcutaneous, 1950 µg twice daily, day 5, 1.50 h |  | QTcI change from baseline | 10.4 ms
C[C@@H](NC(=O)N1C(=O)[C@H](Cc2ccnc(N)c2)[C@H]1C(=O)O)C1CCCCC1 |  | healthy adult Chinese volunteers | continuous intravenous infusion, 0.3 mg/kg/h, 5-day infusion, CTCAE 5.0 grading |  | incidence of elevated blood uric acid | 0%
CC(C)(O/N=C(\C(=O)N[C@@H]1C(=O)N2C(C(=O)[O-])=C(C[n+]3ccccc3)CS[C@H]12)c1csc(N)n1)C(=O)O | population PK base model | healthy human, plasma | intravenous, typical value |  | clearance | 118 mL/min
CCc1ccc(CC/C=C/c2ccc3c(c2)C(=O)CC3)cc1 |  | Sprague-Dawley rat, male, serum | oral, 450 mg/kg/day, 14 days |  | total bilirubin | 1.03 µM
Clc1ccc(Cl)c(-c2cc(Cl)ccc2Cl)c1 |  | Sprague Dawley rat, spleen | intraperitoneal, 100 mg/kg |  | organ weight | 0.47 g
COc1ccc2nc3cc(Cl)ccc3c(Nc3cc(CN4CCCC4)c(O)c(CN4CCCC4)c3)c2n1 |  | mouse, blood | intraperitoneal, 57 mg/kg |  | plateletcrit | 0.06%
CC(C)CC(=O)OC[C@H]1O[C@@](C#N)(c2ccc3c(N)ncnn23)[C@H](O)[C@@H]1O | plasma protein binding | human plasma | 90 µM, time not given |  | recovery | 93.6%
COc1cc2c(Oc3ccc4[nH]c(C)cc4c3F)ccnc2cc1OCC1(N)CC1 |  | paediatric recurrent refractory sarcoma | 12 mg |  | grade 3 Anorexia | 0%

Some of these lines once more:
Structure (SMILES) | test | test system | setting | how to read | endpoint | value
CC(C)C[C@@H](NC(=O)[C@H](Cc1ccccc1)NC(=O)CNC(=O)[C@@H](C)NC(=O)[C@H](Cc1ccc(O)cc1)NC(=O)[C@@H]1CCCN1C(=O)[C@@H]1CCCN1C(=O)c1ccc[n+](C)c1)C(=O)O |  | rat hypothalamus homogenate | 100 µM, pH 7.4, 37 °C |  | half-life | 28 min
COc1ccc(-c2c(-c3ccc(C#N)c(F)c3)nc(N3CCC(N)CC3)n(C)c2=O)cc1F | refers to: upper respiratory tract infection | human patients | oral, dose not given, dose escalation |  | serious TEAE incidence | 0%
